Results from different studies.
Protocols differ between the studies behind these lines.

Under “patients with adverse event”, `CCN(CCO)CCCC(C)Nc1ccnc2cc(Cl)ccc12` (centres unmarked) is recorded as 33% (refers to: Anemia grade 1; newly diagnosed glioblastoma patients; oral, 400 mg/dose, with radiotherapy and temozolomide).
`Nc1nc2cc(-c3ccc4ncc(C(=O)N5CCOCC5)n4c3)ccc2o1`: “patients with adverse event” 0% (refers to: Cough; advanced solid tumour patients; dose not given).
For `CN1CC[C@@H](c2c(O)cc(O)c3c(=O)cc(-c4ccc(C(F)(F)F)cc4Cl)oc23)[C@@H]1CO`, “patients with adverse event” read 5% (refers to: Pneumonia; relapsed or refractory haematological malignancies; oral, dose not given, grade 3 to 4, all arms).
`O=C1Nc2cc3[nH]nc(-c4ccncc4)c3cc2CN1Cc1ccccc1`: “patients with decreased appetite” 67% (CTCAE v4.03; advanced solid tumour patients; intravenous, 3.6 mg/kg, schedules 1/2).
Under “patients with adverse event”, `COc1c(OCCCN2CCOCC2)ccc2c1N=C(NC(=O)c1cnc(N)nc1)N1CCN=C21` is recorded as 78% (refers to: decreased neutrophil count; patients with advanced malignancies; intravenous, dose not given, any grade, all cohorts, added: gemcitabine).
`CC(=O)c1c(C)c2cnc(Nc3ccc(C4CCN(CCS(C)(=O)=O)CC4)cn3)nc2n(C2CCCC2)c1=O`: “patients with any TEAE” 100% (HR+/HER2- advanced breast cancer patients; oral, dose not given).
Under “patients with back pain”, `C[C@@H]1OC(=O)NN=C1c1ccc(-c2ccc(F)cc2)c(C(F)(F)F)c1` is recorded as 0% (patients, phase I trial; oral, 5 mg once daily, any grade TEAE).
For `CO[C@H]1C[C@@H]2CC[C@@H](C)[C@@](O)(O2)C(=O)C(=O)N2CCCC[C@H]2C(=O)O[C@H]([C@H](C)C[C@@H]2CC[C@@H](OC(=O)NCCOCCOCCOCCOCCOCCOCCOCCOCCC(=O)N3CCc4cc(Cn5nc(-c6ccc7oc(N)nc7c6)c6c(N)ncnc65)ccc4C3)[C@H](OC)C2)C[C@@H](O)[C@H](C)/C=C(\C)[C@@H](O)[C@@H](OC)C(=O)[C@H](C)C[C@H](C)/C=C/C=C/C=C/1C`, “patients with AE” read 4% (refers to: grade ≥3 treatment-related ALT increase; patients with advanced solid tumours; intravenous, dose not given, all patients, weekly).
For `N[C@@H]1c2ccccc2OC12CCN(c1cnc3c(N4CCCc5ncccc54)n[nH]c3n1)CC2`, “patients with fatal TEAE” read 0% (advanced solid tumour patients; oral, 10 mg once daily).
Under “patients with AST increase”, `C=CCNc1c(O)cc2c(O)c1C[C@@H](C)C[C@H](OC)[C@H](O)[C@@H](C)/C=C(\C)[C@H](OC(N)=O)[C@@H](OC)/C=C\C=C(/C)C(=O)N2` is recorded as 33% (unresectable or metastatic sarcoma; intravenous, 225 mg/m^2, grade 3-4 lab change).
For `Cc1cc(OCCOCCC(F)(F)P(=O)(O)O)ccc1CCc1cnc2c(N)nc3cc(CCC(=O)O)ccc3c2c1`, “patients with non-serious AE” read 17.8% (refers to: asthenia; adults with advanced solid tumours; dose not given, all groups pooled, all grades).

Excerpt of the above:
`Nc1nc2cc(-c3ccc4ncc(C(=O)N5CCOCC5)n4c3)ccc2o1`: “patients with adverse event” 0% (refers to: Cough; advanced solid tumour patients; dose not given).
For `N[C@@H]1c2ccccc2OC12CCN(c1cnc3c(N4CCCc5ncccc54)n[nH]c3n1)CC2`, “patients with fatal TEAE” read 0% (advanced solid tumour patients; oral, 10 mg once daily).
